Measurements gathered from unrelated publications.
Each line is one published result; not all experiments were run side by side.
Chain of UniProt P34972 (whole entry, looked up): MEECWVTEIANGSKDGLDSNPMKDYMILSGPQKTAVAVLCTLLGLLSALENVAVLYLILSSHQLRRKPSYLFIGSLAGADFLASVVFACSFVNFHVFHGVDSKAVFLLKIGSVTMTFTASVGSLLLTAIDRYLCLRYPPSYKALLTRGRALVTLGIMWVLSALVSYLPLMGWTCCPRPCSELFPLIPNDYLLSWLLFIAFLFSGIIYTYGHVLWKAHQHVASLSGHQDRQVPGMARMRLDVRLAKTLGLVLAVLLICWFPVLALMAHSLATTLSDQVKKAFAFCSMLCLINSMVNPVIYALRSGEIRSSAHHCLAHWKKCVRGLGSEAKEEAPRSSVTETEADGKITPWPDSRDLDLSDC
Chain of UniProt Q16539 (whole entry, looked up): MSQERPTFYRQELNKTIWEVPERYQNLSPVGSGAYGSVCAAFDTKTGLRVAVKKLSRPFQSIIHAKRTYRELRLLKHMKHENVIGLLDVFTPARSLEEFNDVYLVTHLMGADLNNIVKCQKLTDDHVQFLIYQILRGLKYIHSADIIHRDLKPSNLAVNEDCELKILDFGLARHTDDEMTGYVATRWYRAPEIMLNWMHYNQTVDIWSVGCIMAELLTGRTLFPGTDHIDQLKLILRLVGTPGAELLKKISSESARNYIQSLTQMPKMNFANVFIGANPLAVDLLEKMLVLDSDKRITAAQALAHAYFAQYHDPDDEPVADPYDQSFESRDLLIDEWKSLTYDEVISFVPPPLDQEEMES

For `CC[C@H](C)[C@H](NC(=O)[C@H](Cc1c[nH]c2ccccc12)NC(=O)[C@@H](NC(=O)[C@@H](NC(=O)[C@@H](NC(=O)[C@H](CCCNC(=N)N)NC(=O)[C@@H](N)CCCNC(=N)N)[C@@H](C)CC)[C@@H](C)O)[C@@H](C)CC)C(=O)N[C@H](C(=O)N[C@H](C(=O)N[C@@H](CCCNC(=N)N)C(=O)N[C@@H](CCCNC(=N)N)C(N)=O)[C@@H](C)CC)[C@@H](C)O`, the MIC was 2 µM (Lacticaseibacillus rhamnosus; 1.038, probiotic strain; 24 h, 37 °C, tested up to 128 µM).
For `CC1(C)SC2C(NC(=O)C(NC(=O)C3=C(O)C4CCCN4C3=O)c3ccccc3)C(=O)N2C1C(=O)O` (stereo not shown), the MIC was 25 µg/mL (Escherichia coli; broth microdilution; Keio mutant JW0587-1; 18 h, enterobactin-related gene).
The IC50 of `COc1cc(Nc2ncc(F)c(Nc3ccc4c(n3)NC(=O)C(C)(C)O4)n2)cc(OC)c1OC` is reported as > 10 µM (CNR2 (Homo sapiens, UniProt P34972)).
With `Fc1ccc(COc2cccc(CNCc3ccccc3)c2)cc1` the MIC was 7.8 to 31.3 µM (nontuberculous mycobacteria; range over strains).
The MIC of `CC(C)(C)Oc1ccc(CC2NC(=O)C(C(=O)NC(C(=O)NC3C(=O)N4C3SC(C)(C)C4C(=O)O)c3ccccc3)=C2O)cc1` (stereo not shown) is reported as 50 µg/mL (Escherichia coli; broth microdilution; Keio mutant JW5195-1; 18 h).
`N=C(N)NCCC[C@H](NC(=O)CN)C(=O)N[C@@H](Cc1c[nH]c2ccccc12)C(=O)N[C@@H](CCCNC(=N)N)C(=O)N[C@@H](Cc1c[nH]c2ccccc12)C(=O)N[C@@H](Cc1c[nH]c2ccccc12)C(=O)N[C@@H](Cc1c[nH]c2ccccc12)C(=O)N[C@@H](CCCNC(=N)N)C(=O)N[C@@H](Cc1c[nH]c2ccccc12)C(=O)N[C@@H](CCCNC(=N)N)C(=O)N[C@@H](Cc1ccccc1)C(N)=O` has an MIC of 16 µM (Candida albicans; broth microdilution; CGMCC 2.209, RPMI 1640-MOPS; 48 h, 30 °C, together with: NaCl 150 mM).
`COc1cc2c(Oc3ccc4[nH]c(C)cc4c3F)ccnc2cc1OCC1(N)CC1`: “grade 3 Triglyceride elevation” 0% (paediatric recurrent refractory sarcoma; 12 mg).
Under “log2 fold change”, `CC[C@H](C)[C@@H]1NC(=O)[C@@H]2CCCN2C(=O)[C@H](CC(C)C)NC(=O)[C@H](CC(C)C)NC(=O)CNC(=O)[C@@H](NC(=O)[C@@H](NC(=O)[C@H](CC(=O)O)NC(=O)CNC(=O)[C@@H](NC(=O)[C@H](C)NC(=O)CNC(=O)[C@H](CCCCN)NC(=O)[C@H](CC(C)C)NC(=O)[C@H](CC(C)C)NC(=O)[C@H](CCCCN)NC(=O)CNC(=O)[C@@H](NC(=O)[C@@H](N)CC(C)C)C(C)C)C(C)C)C(C)C)CSSC[C@@H](C(=O)O)NC1=O` is recorded as -3.98 (RNA-seq, item: Nipal1; mouse, traumatic brain injury model, frontal cortex and hippocampus; dose not given; baseline: TBI alone).
The MIC of `CC[C@H](C)[C@H](NC(=O)[C@H](CC(C)C)NC(=O)[C@H](CCCCN)NC(=O)[C@@H](NC(=O)[C@H](C)NC(=O)[C@H](CCC(=O)O)NC(=O)[C@H](Cc1c[nH]cn1)NC(=O)[C@@H](NC(=O)[C@H](CCCCN)NC(=O)[C@H](CCC(N)=O)NC(=O)[C@H](Cc1ccccc1)NC(=O)[C@@H](NC(=O)[C@H](CCCCN)NC(=O)[C@H](CCCCN)NC(=O)[C@H](CC(C)C)NC(=O)[C@H](C)N)C(C)C)[C@@H](C)CC)[C@@H](C)CC)C(N)=O` is reported as 7.34 µM (Gram-positive and Gram-negative bacteria; geometric mean).
`COc1cc(CCC[P+](c2ccccc2)(c2ccccc2)c2ccccc2)c(OC)c2c1OCO2.[I-]` has a TGI of -5.47 log M (COLO 205; SRB).
The MIC of `C[C@H](NC(=O)[C@H](CCCNC(=N)N)NC(=O)[C@H](Cc1c[nH]c2ccccc12)NC(=O)[C@H](CCCNC(=N)N)NC(=O)[C@H](Cc1c[nH]c2ccccc12)NC(=O)[C@H](Cc1c[nH]c2ccccc12)NC(=O)[C@H](Cc1c[nH]c2ccccc12)NC(=O)[C@H](CCCNC(=N)N)NC(=O)[C@H](Cc1c[nH]c2ccccc12)NC(=O)[C@H](CCCNC(=N)N)NC(=O)CN)C(N)=O` is reported as 16 µM (Candida albicans; broth microdilution; alveolar fluid isolate, RPMI 1640-MOPS; 48 h, 30 °C).
`N=C(N)c1ccc(OCCCCCOc2ccc(C(=N)N)cc2)cc1` has an MIC of 50 µg/mL (Escherichia coli; mcr-1; 20 h, in combination, checkerboard, together with: rifampicin).
For `CC1(C)SC2C(NC(=O)C(NC(=O)C3=C(O)C(c4ccccc4)NC3=O)c3ccccc3)C(=O)N2C1C(=O)O` (stereo not shown), the MIC was > 200 µg/mL (Escherichia coli; broth microdilution; isolate IU 356 A, KPC-3, VIM-1, TEM; together with: clavulanic acid 6 µg/mL).
`COc1c(CCC[P+](c2ccccc2)(c2ccccc2)c2ccccc2)cc2c(c1OC)OCO2.[I-]` gave an LC50 of > -4 log M (TK-10; SRB).
With `N=C(N)NCCC[C@H](NC(=O)CCCCCNC(=O)[C@H](CCCNC(=N)N)NC(=O)[C@H](CCCNC(=N)N)NC(=O)CCCCCNC(=O)[C@H](CCCNC(=N)N)NC(=O)[C@H](CCCNC(=N)N)NC(=O)CCCCCNC(=O)[C@H](CCCNC(=N)N)NC(=O)[C@H](CCCNC(=N)N)NC(=O)CCCCCNC(=O)[C@@H](N)CCCNC(=N)N)C(=O)NCCCCCC(=O)NCCC(=O)O` the MIC was > 192 µM (Escherichia coli; ATCC 25922; 1 h, 37 °C, after 50% fetal bovine serum).
`N=C(N)NCCC[C@H](NC(=O)[C@H](Cc1c[nH]c2ccccc12)NC(=O)[C@H](CCCNC(=N)N)NC(=O)[C@H](Cc1c[nH]c2ccccc12)NC(=O)[C@H](Cc1c[nH]c2ccccc12)NC(=O)[C@H](Cc1c[nH]c2ccccc12)NC(=O)[C@H](CCCNC(=N)N)NC(=O)[C@H](Cc1c[nH]c2ccccc12)NC(=O)[C@H](CCCNC(=N)N)NC(=O)CN)C(N)=O` gave an MIC of 4 µM (Candida albicans; broth microdilution; CGMCC 2.209, RPMI 1640-MOPS; 48 h, 30 °C, together with: FeCl3 4 µM).
With `C[C@H]1CN(c2n[nH]c3nc(N[C@H]4CC[C@H](NS(=O)(=O)CCC(F)(F)F)CC4)ncc23)CCO1` the remaining binding was 0.69 (MAPK14 (Homo sapiens, UniProt Q16539); Kinobeads competition; HEK293, K562, placenta lysate; 0.8 µM, unit not given; baseline: vehicle).
`CCN1CCN(C(=O)N[C@@H](C(=O)N[C@@H]2C(=O)N3[C@@H]2SC(C)(C)[C@@H]3C(=O)O)c2ccccc2)C(=O)C1=O` gave an MIC of 3.12 µg/mL (Escherichia coli; broth microdilution; JW0790-2 fiu deletion mutant; ferric iron uptake gene).
`N=C(N)NCCC[C@H](NC(=O)CN)C(=O)N[C@@H](Cc1c[nH]c2ccccc12)C(=O)N[C@@H](CCCNC(=N)N)C(=O)N[C@@H](Cc1c[nH]c2ccccc12)C(=O)N[C@@H](Cc1c[nH]c2ccccc12)C(=O)N[C@@H](Cc1c[nH]c2ccccc12)C(=O)N[C@@H](CCCNC(=N)N)C(=O)N[C@@H](Cc1c[nH]c2ccccc12)C(=O)N[C@@H](CCCNC(=N)N)C(=O)N[C@@H](Cc1c[nH]c2ccccc12)C(N)=O` has an MIC of 4 µM (Candida albicans; broth microdilution; CGMCC 2.209, RPMI 1640-MOPS; 48 h, 30 °C, together with: MgCl2 1 mM).
`CC1(C)S[C@@H]2[C@H](NC(=O)[C@H](N)c3ccccc3)C(=O)N2[C@H]1C(=O)O` has an MIC of 200 µg/mL (Escherichia coli; broth microdilution; isolate IU, CTX-M-14, TEM-1; together with: clavulanic acid 6 µg/mL).
The tissue uptake of `C[C@@H](O)[C@@H](CO)NC(=O)[C@@H](CCCNC(=N)N)NC(=O)[C@@H]1CCCN1C(=O)[C@@H]1CSSC[C@H](NC(=O)[C@H](Cc2ccccc2)NC(=O)CN2CCN(CC(=O)O)CCN(CC(=O)O)CCN(CC(=O)O)CC2)C(=O)N[C@@H](Cc2ccc(O)cc2)C(=O)N[C@@H](Cc2ccccc2)C(=O)N[C@@H](CCC(N)=O)C(=O)N[C@@H](CC(N)=O)C(=O)N1` [gallium-68 labelled] is reported as 2.11 %ID/g (Wistar rat, healthy, urinary bladder; intravenous, 8 MBq, 60 min, mean).
For `CC[C@H](C)[C@H](NC(=O)[C@H](Cc1ccccc1)NC(=O)[C@H](CCC(=O)O)NC(=O)[C@H](CCCNC(=N)N)NC(=O)[C@H](C)NC(=O)[C@H](C)NC(=O)[C@H](CCC(N)=O)NC(=O)[C@H](CCC(=O)O)NC(=O)[C@H](CCC(=O)O)NC(=O)[C@H](CC(C)C)NC(=O)[C@H](Cc1ccc(O)cc1)NC(=O)[C@H](CO)NC(=O)[C@H](CO)NC(=O)[C@@H](NC(=O)[C@H](CC(=O)O)NC(=O)[C@H](CO)NC(=O)[C@@H](NC(=O)[C@H](Cc1ccccc1)NC(=O)[C@@H](NC(=O)CNC(=O)[C@H](CCC(=O)O)NC(=O)[C@H](C)NC(=O)CCc1c[nH]cn1)[C@@H](C)O)[C@@H](C)O)C(C)C)C(=O)N[C@@H](C)C(=O)N[C@@H](Cc1c[nH]c2ccccc12)C(=O)N[C@@H](CC(C)C)C(=O)N[C@H](C(=O)N[C@@H](CCCNC(=N)N)C(=O)NCC(=O)N[C@@H](CCCNC(=N)N)C(=O)N[C@@H](CCCCNC(=O)COCCOCCNC(=O)COCCOCCNC(=O)CC[C@H](NC(=O)CCCCCCCCCCCCCCCCC(=O)O)C(=O)O)C(=O)NCC(=O)NCC(=O)N[C@@H](CO)C(=O)N[C@@H](CCCCNc1c(NCCCCCN(O)C(=O)CCC(=O)NCCCCCN(O)C(=O)CCC(=O)NCCCCCN(O)C(C)=O)c(=O)c1=O)C(=O)O)C(C)C` [zirconium-89 labelled], the tissue uptake was 0.11 %ID/g (rat, colon; sc, 3 nmol/kg, 168 h, ex vivo).
`N=C(N)NCCC[C@H](NC(=O)[C@H](Cc1c[nH]c2ccccc12)NC(=O)[C@H](CCCNC(=N)N)NC(=O)[C@H](Cc1c[nH]c2ccccc12)NC(=O)[C@H](Cc1c[nH]c2ccccc12)NC(=O)[C@H](Cc1c[nH]c2ccccc12)NC(=O)[C@H](CCCNC(=N)N)NC(=O)[C@H](Cc1c[nH]c2ccccc12)NC(=O)[C@@H](N)CCCNC(=N)N)C(=O)N[C@@H](Cc1ccccc1)C(N)=O` gave an MIC of 8 µM (Candida albicans; broth microdilution; 17546, RPMI 1640-MOPS; 48 h, 30 °C).
The MIC of `CC[C@H](C)[C@H](NC(=O)[C@H](CCCCN)NC(=O)[C@H](CCCCN)NC(=O)[C@H](Cc1ccccc1)NC(=O)[C@@H](NC(=O)[C@@H](NC(=O)[C@H](CCCNC(=N)N)NC(=O)[C@H](Cc1ccccc1)NC(=O)[C@@H](NC(=O)[C@H](CCCCN)NC(=O)[C@H](CCCCN)NC(=O)[C@@H](N)CCSC)[C@@H](C)CC)C(C)C)[C@@H](C)CC)C(=O)N[C@@H](CC(C)C)C(=O)N[C@@H](CCCCN)C(=O)N[C@@H](CCCNC(=N)N)C(=O)N[C@@H](CC(C)C)C(=O)N[C@H](C(=O)N[C@H](C(=O)O)C(C)C)[C@@H](C)CC` is reported as 4 µg/mL (Staphylococcus aureus; broth microdilution; GU-1 MRSA; together with: 150 mM NaCl).
For `CC(C)C[C@@H](NC(=O)[C@H](C)NC(=O)CNC(=O)[C@@H](NC=O)C(C)C)C(=O)N[C@@H](C)C(=O)N[C@@H](C(=O)N[C@H](C(=O)N[C@@H](C(=O)N[C@@H](Cc1c[nH]c2ccccc12)C(=O)N[C@H](CC(C)C)C(=O)N[C@@H](Cc1cccc2cc[nH]c12)C(=O)N[C@H](CC(C)C)C(=O)N[C@@H](Cc1c[nH]c2ccccc12)C(=O)N[C@H](CC(C)C)C(=O)N[C@@H](Cc1c[nH]c2ccccc12)C(=O)NCCO)C(C)C)C(C)C)C(C)C`, the MIC was 0.27 µM (Streptococcus pyogenes; broth microdilution; SSI-9).

Excerpt of the above:
`N=C(N)c1ccc(OCCCCCOc2ccc(C(=N)N)cc2)cc1` has an MIC of 50 µg/mL (Escherichia coli; mcr-1; 20 h, in combination, checkerboard, together with: rifampicin).
For `CC1(C)SC2C(NC(=O)C(NC(=O)C3=C(O)C4CCCN4C3=O)c3ccccc3)C(=O)N2C1C(=O)O` (stereo not shown), the MIC was 25 µg/mL (Escherichia coli; broth microdilution; Keio mutant JW0587-1; 18 h, enterobactin-related gene).
